Experimental data pooled from the literature.
Every numbered part comes from another study and shows a few of its results, in no order.

Block 1 — method: RNA Bind-n-Seq; molecule type: RNA; matrix: in vitro; tested at: 365 nM; baseline: no-protein control; direction: higher = stronger binding
Target: RNA binding protein fox-1 homolog 2, RRM domain, GST-SBP tag (RBFOX2, Homo sapiens, UniProt O43251-10, residues 100-194)
Setting: natural RNA segment, single round, ends assumed
Shared flanks, not repeated: GGGAGUUCUACAGUCCGACGAUC … UGGAAUUCUCGGGUGCCAA
Target sequence (chain): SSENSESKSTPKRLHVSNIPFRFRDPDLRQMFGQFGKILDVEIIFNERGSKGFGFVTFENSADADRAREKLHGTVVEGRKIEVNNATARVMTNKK
Strand	RBNS enrichment (R)
CCAACAUUUGAGAGCAGAGAGUUUGCACCACCACUUCCCGGUUCAAGGUUCUUUUAACUGCUAACUGAAAAUGGAAUGAAAUUGCAUCCAUAGAUACUGAUGGGAUGCCA	2.81
UACCCGAUGUUUACAGAUGCUGUUGGGAAGUUAUCAAUAAAAAGACACCAUUACUAAAAAGGGAAAAGUACACCUAGCUGUGGCUUCUUCAGUCCUUAAGCCAAGCAACC	0.718
CACACAAAAUCACCAAUGAUUCCGUUACCUUCUGGAGUAAGGACCCCACCCUCUCUGCAGCAAGGGGGCCCUCCUUGUCACUGACAUUUGCUAAACCGUGGCAAUUCAUC	0.405
UACUACCCCCAGGUUUUCAAAUGAAUUAACAGAAGCAGAGGUGUUGAGUAAAUGUAUCCAAGAGACACAUCUAGUAGGGAGUUCAGUUUUAAGAUAGUUUGGCUCCAGAG	0.481
CUUGCUCUGUCGCCCAGGCUGGAGCGCAGUGGCGCAAUCUCGGCUCACUGCAACCUCCACCUCCUGGGUUCAAGCAAUUCUUGUGCCUCAGCCUCCCGAGUAGCUGGGAU	0.313
CAGAAUGAGAAAGGAAUGGUACUUAGGUGUUUGGUAUGCUGCUCACGUGAAGUCAGCCCACACCAGCCAAACCCUCGUGGAAGAUCUGCUGCAACCAUUAUCUUUGUUCU	0.93
GUACUCCCAAACUGACAAUUUUACCUAUUCUGAAAAAGACAUAAAACAGAAUUUGGUAGCACUUACCUCUACAGACACCUGCUAAUAAAUUAUUUUCUGUCAAAAGAAAA	0.245
CUUAGAGGAACUGUAAAUCUAUUGCCCAGUCAUAACAUUUUGAGCUGCAUUUAAGUAGACUAUGGACCGUUAAGCUGGGCAAAUGAAAUGACAAGGGGACGGGGUCUGUG	0.618

Block 2 — method: protein-binding microarray; molecule type: double-stranded DNA, one strand shown; matrix: in vitro; tested at: 940 nM top; setting: 60-bp whole probe; with: salmon DNA 0.4 mg/ml; baseline: random background probes; direction: higher = stronger binding
Target: Interferon regulatory factor 5, full length, phosphomimetic (IRF5, Homo sapiens, UniProt Q13568-2, residues 1-514, S451D/S453D/S456D/S462D)
Shared flanks, not repeated: GCCTAGCAC … GTGCTAGGTCTTGATTCGCTTGACGCTGCTG
Strand	fitted relative affinity [z-score]
GACGCTCTCGGTTTCGGGAC	7.03
TCATATATTCATATATAACT	0.168
ACCACTCTTCCTTTACTTTC	2.64
GACTGTTTCGGACTGGGGAC	2.42
TTAGGACTGCTACTGCTTTC	-0.268
GACGGTCTCGATCTCGGGAC	2.37
TGTCATATACACATCTTCTG	0.587
TCAGGTTCAGATATAGGACT	-0.384

Block 3 — read-out: enzyme activity; mode: inhibitor; tested at: 20 µM
Target: Replicase polyprotein 1ab, polymerase (rep, Severe acute respiratory syndrome coronavirus 2, UniProt P0DTD1)
Structure (SMILES)	inhibition [%]
CN1[C@@H]2CC[C@H]1C[C@@H](OC(=O)c1cc(Cl)cc(Cl)c1)C2	18.1
O=C(CCCN1CCC2(CC1)C(=O)NCN2c1ccccc1)c1ccc(F)cc1	-24.2
O=C(O)[C@@H](O)[C@@H](O)[C@H](O)[C@@H](O)C(=O)O	-2.37
O=C(N[C@H]1CN2CCC1CC2)c1ccc(Cl)cc1	-2.16
CC/C(=C(/c1ccc(/C=C/C(=O)O)cc1)c1ccc2[nH]ncc2c1)c1ccc(F)cc1Cl	-1.47
OC1(c2ccc(Cl)cc2)c2ccccc2C2=NCCN21 (stereo not drawn)	-0.81
CC1(C)CC[C@]2(C(=O)O)CC[C@]3(C)[C@H](C(=O)C=C4[C@@]5(C)C=C(C#N)C(=O)C(C)(C)[C@@H]5CC[C@]43C)[C@@H]2C1	1.56
Cn1c([N+](=O)[O-])cnc1COC(N)=O	27.7
CC(=O)Nc1cccc(-n2c(=O)n(C3CC3)c(=O)c3c(Nc4ccc(I)cc4F)n(C)c(=O)c(C)c32)c1	-2.08
O=C(O)[C@H]1CN(C/C=C/P(=O)(O)O)CCN1	-1.88
O=C(O)c1nn(Cc2ccc(Cl)cc2Cl)c2ccccc12	1.29
Cc1ccc(-c2ncc(Cl)cc2-c2ccc(S(C)(=O)=O)cc2)cn1	-3.64
N[C@@H](Cc1ccc(I)cc1)C(=O)O	-2.02
CC(C)(C#N)c1cc(Cn2cncn2)cc(C(C)(C)C#N)c1	-7.65
CN1C[C@@H](NS(=O)(=O)N(C)C)C[C@@H]2c3cccc4c3c(cn4C)C[C@H]21	0.7
COCCOC(=O)C1=C(C)NC(C)=C(C(=O)OC/C=C/c2ccccc2)C1c1cccc([N+](=O)[O-])c1 (stereo not drawn)	-1.4
CC1/C=C/C=C/C=C/C=C/C=C/C=C/C=C/C(OC2O[C@H](C)[C@@H](O)[C@H](N)[C@@H]2O)CC(O)C(C(=O)O)C(O)CC(=O)CC(O)CC(O)CC(O)CC(=O)CCCC(=O)CC(=O)OC1C(C)CC(C)C(O)CC(=O)c1ccc(N)cc1 (stereo partly drawn)	54.8
NC(=O)N[C@@H](CCC(=O)O)C(=O)O	-37.8
Oc1ccc(-c2nc(-c3ccc(F)cc3)c(-c3ccncc3)[nH]2)cc1	-24.5
CC1=NC[C@H](O)[C@@H](C(=O)O)N1	0.74
CCCCCCCCCCCCCCCC=O	-1.54
O=C(O)c1cc(O)c2c(c1)[C@H]([C@H]1c3cc(C(=O)O)cc(O)c3C(=O)c3c(O[C@@H]4O[C@H](CO)[C@@H](O)[C@H](O)[C@H]4O)cccc31)c1cccc(O[C@@H]3O[C@H](CO)[C@@H](O)[C@H](O)[C@H]3O)c1C2=O	99.7
O=C(O)c1ccccc1-c1c2cc(I)c(=O)c(I)c-2oc2c(I)c(O)c(I)cc12	96.1
O=C(O)[C@H](CC(=O)N1C[C@H]2CCCC[C@H]2C1)Cc1ccccc1	-1.16
CN(C)CCC=C1c2ccccc2CCc2ccccc21	-3.52

Block 4 — method: universal PBM; molecule type: double-stranded DNA, one strand shown; matrix: in vitro; tested at: not given; direction: higher = stronger binding
Target: Sal-like protein 4, full length isoform B (SALL4, Homo sapiens, UniProt Q9UJQ4-2, residues 1-616)
Setting: 8-mer, flanks averaged, mean of replicates
Construct (chain): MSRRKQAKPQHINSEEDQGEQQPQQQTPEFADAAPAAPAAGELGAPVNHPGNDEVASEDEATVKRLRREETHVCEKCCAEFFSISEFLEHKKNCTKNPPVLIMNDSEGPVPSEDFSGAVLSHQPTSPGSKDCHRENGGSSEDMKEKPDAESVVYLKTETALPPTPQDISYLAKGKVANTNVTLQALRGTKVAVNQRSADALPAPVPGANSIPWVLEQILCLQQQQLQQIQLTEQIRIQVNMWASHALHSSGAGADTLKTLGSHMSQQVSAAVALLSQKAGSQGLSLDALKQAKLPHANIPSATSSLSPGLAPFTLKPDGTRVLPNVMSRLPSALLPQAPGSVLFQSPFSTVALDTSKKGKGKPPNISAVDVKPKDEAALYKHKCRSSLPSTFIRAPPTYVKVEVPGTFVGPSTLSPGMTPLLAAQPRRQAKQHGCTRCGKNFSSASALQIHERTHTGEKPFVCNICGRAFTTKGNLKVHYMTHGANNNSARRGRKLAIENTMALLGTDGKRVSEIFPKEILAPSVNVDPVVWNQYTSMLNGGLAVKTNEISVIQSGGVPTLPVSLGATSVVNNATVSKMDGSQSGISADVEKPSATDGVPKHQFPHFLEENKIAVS
Strand	E-score
ACATCACG	0.0409
CAAAAGTA	0.295
CCTCATTA	0.249
GCCCTAGC	-0.216
CTTCGGAC	-0.0623
CGGGAGAA	-0.157
GTCGATCA	0.0371
CCGCCCTA	-0.121

Further values, each from its own experiment — cell line: HEK-293T; read-out: pseudovirus infection; organism: VSV pseudotyped with SARS-CoV-2 spike; tested at: 10 µM; time: 16 h; baseline: vehicle-treated
SMILES	test	GFP-positive cells [%]
NC(=O)N1c2ccccc2CC(=O)c2ccccc21	FDA-approved drug library screen	82.6
CCCCN(CCCC)CC(O)c1cc(Cl)cc2c1-c1ccc(Cl)cc1/C2=C/c1ccc(Cl)cc1 (stereo not drawn)		76

Excerpt of the above (block 1):
Strand	RBNS enrichment (R)
UACUACCCCCAGGUUUUCAAAUGAAUUAACAGAAGCAGAGGUGUUGAGUAAAUGUAUCCAAGAGACACAUCUAGUAGGGAGUUCAGUUUUAAGAUAGUUUGGCUCCAGAG	0.481
CAGAAUGAGAAAGGAAUGGUACUUAGGUGUUUGGUAUGCUGCUCACGUGAAGUCAGCCCACACCAGCCAAACCCUCGUGGAAGAUCUGCUGCAACCAUUAUCUUUGUUCU	0.93
CCAACAUUUGAGAGCAGAGAGUUUGCACCACCACUUCCCGGUUCAAGGUUCUUUUAACUGCUAACUGAAAAUGGAAUGAAAUUGCAUCCAUAGAUACUGAUGGGAUGCCA	2.81
